Published values from different studies.
A part holds a random share of what one study measured. Changes are numbered by the printed parent chain.

Sample 1
Target: CEBPE, bZIP domain (human)
Method: DHFR protein complementation
Sample: yeast
Notes: single substitutions, most at no-binding floor
Reference: wild-type JUN-FOS pair
Direction: higher = stronger binding
Parent: JUN, bZIP domain (human); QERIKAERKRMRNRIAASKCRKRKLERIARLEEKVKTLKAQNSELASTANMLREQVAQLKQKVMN; partner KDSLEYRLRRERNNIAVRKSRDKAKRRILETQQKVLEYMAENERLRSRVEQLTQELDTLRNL
Change	binding fitness [natural log]
L59G	-1.49
A46Q	-1.04
Q41R	-1.3
T37R	-1.14
K34P	-1.47
S47Q	-1.03
L45I	-1.45
A40F	-1.29
A46V	-1.13
E33L	-1.25

Sample 2
Target: Centromere-binding protein 1, full length, His-tagged (CBF1, Saccharomyces cerevisiae, UniProt P17106, residues 1-351)
Sequence of UniProt P17106 (whole entry, looked up): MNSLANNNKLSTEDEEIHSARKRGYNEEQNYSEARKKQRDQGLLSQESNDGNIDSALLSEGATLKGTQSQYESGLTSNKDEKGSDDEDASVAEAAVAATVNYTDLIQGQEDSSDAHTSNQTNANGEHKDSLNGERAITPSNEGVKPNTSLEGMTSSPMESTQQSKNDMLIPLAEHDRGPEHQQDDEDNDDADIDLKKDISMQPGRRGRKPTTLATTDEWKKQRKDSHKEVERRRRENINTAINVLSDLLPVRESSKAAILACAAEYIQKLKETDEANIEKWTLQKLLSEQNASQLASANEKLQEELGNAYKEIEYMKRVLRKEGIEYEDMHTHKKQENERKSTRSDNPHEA
Method: competition protein-binding microarray
Form: double-stranded DNA, one strand shown
Sample: in vitro
Tested at: 2 µM
Notes: whole 60-bp probe, lowest competitor level
Added: Pho4 competitor, 0.05 µM
Direction: higher = stronger binding
Sequence	fluorescence intensity [a.u.]
CGTCCTAGTGATTGGTTAGTGGGTGCCATGAGGAAGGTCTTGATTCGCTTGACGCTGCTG	73.6
TAGTGCCTCGGAGATACCGTGATGGAATGGGATCGGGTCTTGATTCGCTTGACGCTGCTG	98
ATTGTAGAATTTACCCACGTCTGTCCATCAAGAAGAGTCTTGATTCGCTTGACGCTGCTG	76.8
TAAGTGAGATGGAGTGGCGTGGAACTGCAGGCTGGTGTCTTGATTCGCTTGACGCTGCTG	58.9
TGGCTACTTCGTCACCACGTGGGTACGTATCCGGAAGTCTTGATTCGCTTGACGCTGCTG	1480
ATAGTTCGTGTACAGGCCGTGATGGTCATCTAATTTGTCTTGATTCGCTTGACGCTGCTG	108
GTCTTGTCTCATTCGCACGTGTTTTTCCCCACTTCAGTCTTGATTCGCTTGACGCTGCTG	1260
CTAACGAAGGTTTGAAAGGTGGGTGACAAGCCAAGTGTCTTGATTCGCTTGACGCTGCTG	63.2
AAAGCGGTAATTTGAGAGGTGGGTGCAGATATCTATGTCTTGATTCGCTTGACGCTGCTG	64
AAATTACTAAGTTGACAAGTGGGTGACGCCGTATGAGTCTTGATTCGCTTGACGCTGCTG	76
CATACCCAACCTTTTCACGTGCAATAAGATATTTGTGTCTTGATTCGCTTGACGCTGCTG	1140
CACAGTGGTAACGGCACCGTGGCCGGGAAACGGTTCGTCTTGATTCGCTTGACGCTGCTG	55.3
AAATTACTAAGTTTTCACGTGGCTTACCCCGTATGAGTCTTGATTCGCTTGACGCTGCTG	967
CGGGGTTAAGTTTGTGTAGTGGGTGGCTTGCAGCAGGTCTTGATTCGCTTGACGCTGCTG	64.6
TGCGCAACAACTTGGCCCGTGGGTGTATGTCTAGAAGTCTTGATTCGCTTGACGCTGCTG	72.5
CTTCTGTAAATTTGTCACGTGGGTGGACGCGCCCCGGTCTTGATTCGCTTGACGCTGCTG	4600

Sample 3
Target: ABI1, truncated, D143A, DHFR fusion (Arabidopsis thaliana)
Method: DHFR PCA, deep sequencing
Sample: yeast
Notes: methotrexate growth selection, single substitutions
Added: (+)-ABA 2500 µM
Reference: wild-type fitted maximum
Direction: higher = stronger binding
Parent: PYL1, truncated, DHFR fusion (Arabidopsis thaliana); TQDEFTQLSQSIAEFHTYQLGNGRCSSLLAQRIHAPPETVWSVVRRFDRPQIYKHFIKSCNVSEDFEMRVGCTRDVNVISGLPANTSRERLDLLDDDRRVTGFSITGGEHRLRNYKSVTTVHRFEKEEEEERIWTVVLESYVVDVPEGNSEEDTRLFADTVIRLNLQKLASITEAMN; partner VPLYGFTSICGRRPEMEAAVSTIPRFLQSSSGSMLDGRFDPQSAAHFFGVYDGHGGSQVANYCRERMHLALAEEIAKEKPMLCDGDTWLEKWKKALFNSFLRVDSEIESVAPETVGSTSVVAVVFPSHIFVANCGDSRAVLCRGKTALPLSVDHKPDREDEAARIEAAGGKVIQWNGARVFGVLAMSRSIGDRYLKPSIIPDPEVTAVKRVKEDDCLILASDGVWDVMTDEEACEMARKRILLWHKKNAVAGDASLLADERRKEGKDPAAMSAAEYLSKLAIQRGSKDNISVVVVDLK
Change	relative binding score [%]
N165A	54.2
F5P	101
V40W	-16.9
T154D	-4.98
D144S	89.1
R163D	78.5
T106P	71.5
S87K	1.25
H55F	88.5
R45D	-21.8
N114V	28.6
P146C	87.4
S104W	46.7
S104T	101
R111G	73.3
Y53H	97.6
Q51N	99.7
Q10A	104
R155S	90.3
S87E	2.06
E109K	99.8
R90Y	84.4
R113I	105
R46N	85.6
R113L	103

Sample 4
Target: Prothrombin, mature alpha-thrombin (F2, Homo sapiens, UniProt P00734)
Method: aptamer microarray, sandwich
Form: DNA with 2'F-ANA
Sample: in vitro
Tested at: 200 nM
Notes: whole 15-mer aptamer, many near background
Added: Cy3 exosite-II aptamer, 400 nM
Direction: higher = stronger binding
Sequence: GGTTGGTGTGGTTGG
Modification	mean fluorescence intensity [a.u.]
2'F-ANA at 1 3 8 9 11	333
2'F-ANA at 2 4 7 8 10 12 14	68.3
2'F-ANA at 2 6 8 9 12 13 14 15	135
2'F-ANA at 2 4 5 8 11 12 13 14	48.6
2'F-ANA at 1 2 4 5 6 10 11 13 14 15	51.1
2'F-ANA at 4 5 7 8 11 12 14	48.1
2'F-ANA at 1 2 3 4 5 6 8 10 13 14	48.1
2'F-ANA at 1 4 5 7 9 12 14 15	44.1
2'F-ANA at 2 5 6 8 9 11 12 14	52.3
2'F-ANA at 3 4 5 13 14	62.9
2'F-ANA at 2 4 5 9 13	50.3
2'F-ANA at 4 5 6 7 9 11 12 15	103
2'F-ANA at 1 2 3 4 6 9 10 12 13 14	55.7
2'F-ANA at 5 7 8 9 12 13 14	45.1
2'F-ANA at 5 8 9 13 14	47.1
2'F-ANA at 1 2 3 7 14	115
2'F-ANA at 1 3 4 6 8 9 12 13 14 15	73.5
2'F-ANA at 2 3 4 9 11 13 14	258

Sample 5
Target: Sal-like protein 4, full length isoform A (SALL4, Homo sapiens, UniProt Q9UJQ4, residues 1-1053)
Sequence of UniProt Q9UJQ4 (whole entry, looked up): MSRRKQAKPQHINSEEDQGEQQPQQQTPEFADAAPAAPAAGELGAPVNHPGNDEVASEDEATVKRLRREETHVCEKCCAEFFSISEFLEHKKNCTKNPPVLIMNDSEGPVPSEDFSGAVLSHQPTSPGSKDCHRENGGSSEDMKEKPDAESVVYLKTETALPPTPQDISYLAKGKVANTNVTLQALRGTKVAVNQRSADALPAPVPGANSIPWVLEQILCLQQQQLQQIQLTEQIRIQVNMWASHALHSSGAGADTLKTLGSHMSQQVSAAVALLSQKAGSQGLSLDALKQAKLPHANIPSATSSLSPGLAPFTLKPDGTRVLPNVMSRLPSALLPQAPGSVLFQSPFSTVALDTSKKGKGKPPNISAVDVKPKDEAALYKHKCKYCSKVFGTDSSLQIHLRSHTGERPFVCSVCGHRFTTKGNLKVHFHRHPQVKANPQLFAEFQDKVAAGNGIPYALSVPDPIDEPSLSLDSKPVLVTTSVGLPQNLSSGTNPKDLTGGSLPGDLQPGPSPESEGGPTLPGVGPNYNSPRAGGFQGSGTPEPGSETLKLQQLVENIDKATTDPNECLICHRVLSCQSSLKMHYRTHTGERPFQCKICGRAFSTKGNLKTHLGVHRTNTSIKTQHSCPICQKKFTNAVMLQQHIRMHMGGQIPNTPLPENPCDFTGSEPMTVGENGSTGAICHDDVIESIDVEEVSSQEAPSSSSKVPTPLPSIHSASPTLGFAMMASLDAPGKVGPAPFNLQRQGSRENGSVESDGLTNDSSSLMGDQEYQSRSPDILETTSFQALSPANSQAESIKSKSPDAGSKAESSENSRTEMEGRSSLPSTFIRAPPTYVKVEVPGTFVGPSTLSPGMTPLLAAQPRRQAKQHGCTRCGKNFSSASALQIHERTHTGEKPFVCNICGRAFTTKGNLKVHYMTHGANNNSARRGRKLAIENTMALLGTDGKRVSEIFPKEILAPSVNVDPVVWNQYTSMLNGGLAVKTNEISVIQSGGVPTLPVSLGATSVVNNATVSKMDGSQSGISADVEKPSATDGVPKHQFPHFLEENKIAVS
Method: universal PBM
Form: double-stranded DNA, one strand shown
Sample: in vitro
Tested at: 600 nM
Notes: 8-mer, flanks averaged, mean of replicates
Direction: higher = stronger binding
Sequence	E-score
AACTACCT	0.0461
AGCACGAA	-0.034
TTCTCCAA	0.106
AGCGTAAT	0.177
ACGCATGC	-0.058
CGGATCTC	-0.202
AAGCGGGC	-0.349
GCGATTTA	0.131
AATATGCG	0.252
CCTAAGTC	-0.272
AAACTATC	0.136
GTGGAGCA	-0.072
ACCTTTCT	0.131
CGCTGGCC	-0.428
ATGGCTCC	-0.164
AAATCCAG	0.0594
CAACTCGA	-0.125

Sample 6
Target: CCNE1, cyclin fold, Cln2 fusion (human)
Method: yeast growth competition, sequencing
Sample: yeast
Notes: strong parent motif
Reference: not given
Direction: higher = stronger binding
Parent: GMNC docking peptide (human); KNAKRNLSSEFAN
Change	normalised enrichment score
KNAKRNQSSEFAN [L7Q]	0.201
KNAKRNLISEFAN [S8I]	2.77
KNAKRNLSFEFAN [S9F]	2.31
KNAKRNLSSEEAN [F11E]	-0.116
KNAKRNLSCEFAN [S9C]	0.969
KNMKRNLSSEFAN [A3M]	0.482
KNAKRNLSSEFRN [A12R]	0.717
KNTKRNLSSEFAN [A3T]	0.555
KNAKRNLSSIFAN [E10I]	0.554
KNAKRNLSSEDAN [F11D]	0.23
KNAKRNLSSEFHN [A12H]	0.62
KNAKRNLSSEMAN [F11M]	0.584
KNAKRNRSSEFAN [L7R]	0.195
KNAIRNLSSEFAN [K4I]	1.32
KNAFRNLSSEFAN [K4F]	0.643
KNCKRNLSSEFAN [A3C]	0.856
KNAKRNYSSEFAN [L7Y]	-0.0324
KNAKRHLSSEFAN [N6H]	-0.196

Repeated from above (sample 1):
Change	binding fitness [natural log]
E33L	-1.25
A46V	-1.13
A46Q	-1.04
K34P	-1.47
T37R	-1.14
Q41R	-1.3
A40F	-1.29
